Measured values gathered from unrelated publications.
Every numbered part comes from another study and shows a few of its results, in no order. Substitutions count along the parent as printed.

Study 1 — technique: competition protein-binding microarray; molecule type: double-stranded DNA, one strand shown; medium: in vitro; concentration: 2 µM; together with: Pho4 competitor, 0.05 µM; direction: higher = stronger binding; endpoint: fluorescence intensity; all sequences stand within: … GTCTTGATTCGCTTGACGCTGCTG
Target: Centromere-binding protein 1, full length, His-tagged (CBF1, Saccharomyces cerevisiae, UniProt P17106, residues 1-351)
Sequence of UniProt P17106 (whole entry, looked up): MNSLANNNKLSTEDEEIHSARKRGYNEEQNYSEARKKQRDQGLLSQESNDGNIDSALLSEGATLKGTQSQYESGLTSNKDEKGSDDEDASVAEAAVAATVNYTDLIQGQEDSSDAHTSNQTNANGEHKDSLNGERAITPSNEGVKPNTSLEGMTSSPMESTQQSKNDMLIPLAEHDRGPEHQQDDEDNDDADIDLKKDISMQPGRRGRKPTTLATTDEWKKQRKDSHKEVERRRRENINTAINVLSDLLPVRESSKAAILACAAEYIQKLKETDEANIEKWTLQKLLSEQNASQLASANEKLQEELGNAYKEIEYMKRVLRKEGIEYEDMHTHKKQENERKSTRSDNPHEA
Setting: whole 60-bp probe, lowest competitor level
Sequence = CATACCCAACCTTGTACGGTGGGTGAAGATATTTGT; result = 60.8 a.u.
Sequence = GGTCTCCTCGGTGAGAACGTGATGGGATAGCCGTTA; result = 299 a.u.
Sequence = AATATTATTAAAAATTGCCGCTGTCATACTGTACGA; result = 89.5 a.u.
Sequence = AGCTGGGAAAACTTCCATGTGGTCTTCGTCCTCAAC; result = 75.3 a.u.
Sequence = TCTTCCAGCCTGGGTCCCGTGCGGAAGGGCGGCGGA; result = 143 a.u.
Sequence = CTTTCCCGATCTTGATTAGTGGGTGTAGCACATTTG; result = 73.2 a.u.
Sequence = AAATTACTAAGTTTTCACGTGGGCTACCCCGTATGA; result = 762 a.u.
Sequence = CCCATCATATTAACGATCGTGCCAGCCGGATTGAAC; result = 71.2 a.u.
Sequence = AGTCTGTGCTAGTCCCACGTGTGAATGCCAAGGTTG; result = 488 a.u.
Sequence = CATACCCAACCTTGGACCGTGGGTGAAGATATTTGT; result = 70.9 a.u.
Sequence = TCTCGTAAAATCCTGCGCATGTTAAATAGCCGCCGA; result = 80.3 a.u.
Sequence = TTCCAACTGTTTTTGCACGCAAATTCGTCCAACCGG; result = 72.4 a.u.
Sequence = CACACTGCGGGGTTACCCGTGTAACGTAGAATAAAA; result = 75 a.u.
Sequence = AAGTGATGAGAATCGCACGTCTAGATAATGGCAGTA; result = 70.8 a.u.
Sequence = CGTCCTAGTGATTGTCGTGTGGGTGCCATGAGGAAG; result = 94.7 a.u.
Sequence = GCTATACGACAGCTGCATGATCAAGTGCCGCTTGTC; result = 97.7 a.u.
Sequence = CATCTAAAAGCATTACGCATGCCCTATAACTGGTAA; result = 93.4 a.u.
Sequence = TCTCTCATTATTCCCACCGTGTCCTCAATCTCTTGT; result = 56.5 a.u.
Sequence = TCCTGGGCGGCTTAAAACGTGAGGAAAATTGTACTG; result = 188 a.u.

Study 2 — technique: RNA Bind-n-Seq; molecule type: RNA; medium: in vitro; concentration: 365 nM; reference: no-protein control; direction: higher = stronger binding; endpoint: RBNS enrichment (R)
Target: RNA binding protein fox-1 homolog 2, RRM domain, GST-SBP tag (RBFOX2, Homo sapiens, UniProt O43251-10, residues 100-194)
Setting: natural RNA segment, single round, ends assumed
All sequences stand within: GGGAGUUCUACAGUCCGACGAUC … UGGAAUUCUCGGGUGCCAA
Residues (chain): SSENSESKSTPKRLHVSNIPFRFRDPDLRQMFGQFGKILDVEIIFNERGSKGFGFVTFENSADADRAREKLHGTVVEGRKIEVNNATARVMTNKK
Sequence = UAGACAAACCAGGGCUUUGUAUGCUUGAAGUUCACUGUUUUGUGCCCCCCUUUGAAGAACUUUCUAUGCAGAAAUAGAUGGUCAGGGUUUCGGAUUUGCAGUGAUGUGUC; result = 1.47
Sequence = UGCUCAGCUCUGCUUAUAGCUAUACCUGCCUCUUAGGUCUUCUGUUUGCCCGUUUCUGAGGUCAGAUGGAUGGAUGUCUGAUGUCUUCCUGUGUUUUCCCUCGAUCUCUC; result = 0.339
Sequence = UUUAGAAGAUGCCAUACGUCGUGUGACAGCUCAUGAGCCUUUCACUGGGCUGGCAAUUGUCUGAACACUUGGGUUCAGUUGAAAUAUAUGUAUUUUGGCCAAAAGCCAGC; result = 0.219
Sequence = UAAGUGGCUGGACUUAUCUUGUGAUUUGGGGCCAUGGAAGAUUGGAAACAAAGAUUUUAAGCCUUCUUCUUUUUUUCUUUUUUCUUUUUUUUUUGAGACCAAGUCUCACU; result = 0.601
Sequence = AUCCCCAAGCAGCCCUACAGCCGGGAUGGGAGGCACGUGGCCUCUCUUUUAUCCGUCUAUUUAUUUUGUAAGUGUAUUCGUGUGGAGGAGGUUGUUGCUUUAUUUUUUUA; result = 0.658
Sequence = CAUAAGAGGGAAGUCUUGGAUUUAGUUUUUUUCCAUACCCUUUUGAAAUUUGCAGCUUCUCUAGUUAGAAAUGUAUUUCUUACAGCUUUUUAAGACUUUGUCAUCCGUUC; result = 1.07
Sequence = UUAAGUCAACUGCAUGCAGCUUUGCUGAUAAAUGAAUAAUUCUCUUUGAUGCCAUUUAUGAGAAAAGACUUCAAUAUCUGUUGCCUGUCAUAUUUAAGAAAAAUUACUGU; result = 0.905
Sequence = GAGAAAAACUUCAGGUUUUGAAAAUCAGAUGAUGUCUUCUCCUUUUCCAAACACCACACGUUGAAAGCAUUUAUAAAUCCAAGUCUGAAACUCUGCGCUCUAGUACUGCU; result = 1.02

Study 3 — target: CCND2, cyclin fold, Cln2 fusion (human); technique: yeast growth competition, sequencing; medium: yeast; setting: weak parent motif; reference: not given; direction: higher = stronger binding; endpoint: normalised enrichment score
Parent: SLBP docking peptide (human); ARYKRKLLINDFG; partner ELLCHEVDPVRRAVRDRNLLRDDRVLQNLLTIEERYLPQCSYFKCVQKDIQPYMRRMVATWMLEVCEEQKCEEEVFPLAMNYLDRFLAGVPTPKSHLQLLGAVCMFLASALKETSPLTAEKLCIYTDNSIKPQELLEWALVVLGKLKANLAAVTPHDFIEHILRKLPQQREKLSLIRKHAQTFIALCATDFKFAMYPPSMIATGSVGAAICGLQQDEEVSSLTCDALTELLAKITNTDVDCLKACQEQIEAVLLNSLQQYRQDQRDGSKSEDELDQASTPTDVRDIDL
Change = ARYKRKLLINWFG [D11W]; result = -0.328
Change = ARYKRKLLINDMG [F12M]; result = -0.0112
Change = ARYKRKLLINDFM [G13M]; result = 0.707
Change = ARYKRKLLPNDFG [I9P]; result = 0.382
Change = ARYKNKLLINDFG [R5N]; result = 0.315
Change = ARYYRKLLINDFG [K4Y]; result = -0.226
Change = ARYKRKLRINDFG [L8R]; result = -0.06
Change = ARYKRHLLINDFG [K6H]; result = -0.0835
Change = ARYKRKLLDNDFG [I9D]; result = -0.111
Change = ARYKRKLLINYFG [D11Y]; result = 0.286
Change = ARYKRKLKINDFG [L8K]; result = -0.211
Change = TRYKRKLLINDFG [A1T]; result = 0.807
Change = ARYKRTLLINDFG [K6T]; result = 0.336
Change = ARYKRKTLINDFG [L7T]; result = -0.182
Change = ARYKRKLLINDDG [F12D]; result = 0.449
Change = ARYKKKLFINDFG [R5K L8F]; result = -0.123
Change = ARYKRKLLRNDFG [I9R]; result = -0.00743
Change = ARYKRKLLISDFG [N10S]; result = 0.461
Change = ARYKRKLLINDTG [F12T]; result = -0.258
Change = ARYKRKLLKNDFG [I9K]; result = 0.316

Study 4 — technique: protein-binding microarray; molecule type: double-stranded DNA, one strand shown; medium: in vitro; concentration: 940 nM top; setting: 60-bp whole probe; together with: salmon DNA 0.4 mg/ml; reference: random background probes; direction: higher = stronger binding; endpoint: fitted relative affinity; all sequences stand within: GCCTAGCAC … GTCTTGATTCGCTTGACGCTGCTG
Target: Interferon regulatory factor 5, full length, phosphomimetic (IRF5, Homo sapiens, UniProt Q13568-2, residues 1-514, S451D/S453D/S456D/S462D)
Sequence = TCATGACTCTGCCTCTAACTGTGCTAG; result = -0.0543 z-score
Sequence = TCACATTTGGAAAATGAAACTGTGCTA; result = 0.266 z-score
Sequence = GACGGACTGCTTTTCCTCACGTGCTAG; result = -0.324 z-score
Sequence = TTAGATTTTAGTATCGATTAGTGCTAG; result = 6.85 z-score
Sequence = GGCGGTTCCGGTTTCGGGACGTGCTAG; result = 5.51 z-score
Sequence = TTTGGTCTCGGTATCGGTTAGTGCTAG; result = 9.03 z-score
Sequence = CTTGGCAAGATGAGGAAGATGTGCTAG; result = -0.615 z-score
Sequence = GACGGTATCGACACTGGGTACGTGCTA; result = 3.86 z-score
Sequence = TTAGGTTTCGGTTATCGGTTAGTGCTA; result = 14.9 z-score
Sequence = GGGTCTTCAGGTTCTCCCCCAGTGCTA; result = 0.144 z-score
Sequence = TGTACTCTCTACATGGGCTTGTGCTAG; result = 1.09 z-score
Sequence = TTAGATATCAGGTATCGATTAGTGCTA; result = 3.13 z-score
Sequence = AGTGTTACCCCTCATCAACCAGTGCTA; result = 0.687 z-score
Sequence = GACGGTATGGGTCTCGGGACGTGCTAG; result = 0.156 z-score
Sequence = TCAGGTATCGGGACTGGGTTAGTGCTA; result = 3.02 z-score
Sequence = GGGCCACAAAGCAATAAGAAGTGCTAG; result = -0.315 z-score
Sequence = GACGGTAACGACTATCGGGACGTGCTA; result = -0.208 z-score
Sequence = TCAGGTCTCGCTATGTTACTGTGCTAG; result = 1.49 z-score
Sequence = AGTTCTAAGGATTTCAGTTTGTGCTAG; result = -0.242 z-score

Repeated from above (study 3):
Change = ARYKRKLLINDMG [F12M]; result = -0.0112
Change = ARYKRKLLPNDFG [I9P]; result = 0.382
Change = ARYKRHLLINDFG [K6H]; result = -0.0835
Change = ARYKRKTLINDFG [L7T]; result = -0.182
Change = ARYKRKLLKNDFG [I9K]; result = 0.316
Change = ARYKRKLLDNDFG [I9D]; result = -0.111
